Measured values from different studies.
Each numbered part is a random draw from the data of one study; scales do not carry over between parts. Substitutions count along the parent as printed.

Series 1
Target: CRIPT, C-terminal peptide
Technique: DHFR complementation, deep sequencing
Sample: yeast
Notes: single substitutions, model-inferred values
Relative to: wild type
Reading: higher = weaker binding
Quantity: binding free energy change
Starting sequence: ERBIN, PDZ domain 1 (human); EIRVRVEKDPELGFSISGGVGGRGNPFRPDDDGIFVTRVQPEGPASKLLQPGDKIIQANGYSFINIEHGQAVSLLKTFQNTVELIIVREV; partner TKNYKQTSV
D53W: 0.39 kcal/mol
R38K: 0.0326 kcal/mol
V87M: -0.0741 kcal/mol
V39Y: 0.756 kcal/mol
F27Q: 1.03 kcal/mol
G52A: 0.0225 kcal/mol
L12G: 0.451 kcal/mol
P26Y: 0.668 kcal/mol
D30W: 0.293 kcal/mol
K54E: 0.0714 kcal/mol
V36N: 0.827 kcal/mol
P26I: 0.925 kcal/mol
P44C: 0.476 kcal/mol
D9L: 0.401 kcal/mol
S62V: 0.109 kcal/mol
A58I: 1.54 kcal/mol
S15Q: 1.05 kcal/mol
E83K: 0.269 kcal/mol
R28G: 0.634 kcal/mol
N65R: 0.0873 kcal/mol
E83R: 0.242 kcal/mol
E7D: -0.0659 kcal/mol
D30R: 0.232 kcal/mol
L84I: -0.189 kcal/mol
F63A: 0.618 kcal/mol

Series 2
Target: CCNA2, cyclin fold, Cln2 fusion (human)
Technique: yeast growth competition, sequencing
Sample: yeast
Notes: strong parent motif
Relative to: not given
Reading: higher = stronger binding
Quantity: normalised enrichment score
Starting sequence: CDKN1B docking peptide (human); PSACRNLFGPVDH
PSACRNLFSPVDH [G9S]: 1.9
PSACRNLFGMVDH [P10M]: 3.12
PSACRNLFGPVNH [D12N]: 4.41
TSACRNLFGPVDH [P1T]: 4.53
FSACRNLFGPVDH [P1F]: 3.78
KSACRNLFGPVDH [P1K]: 5.12
PSACRNLFGPKDH [V11K]: 2.58
PSACRNLFEPVDH [G9E]: 1.57
GSACRNLFGPVDH [P1G]: 3.56
PCACRNLFGPVDH [S2C]: 2.43
PNACRNLFGPVDH [S2N]: 3.6
PSNCRNLFGPVDH [A3N]: 0.132
PSACRNLFGPVDS [H13S]: 4.59
PSACRNLFGPCDH [V11C]: 3.38
PSACRNMFGPVDH [L7M]: 0.457
PSACRNLFGPQDH [V11Q]: 3.38
PSANRNLFGPVDH [C4N]: 1.17
PSACRKLFGPVDH [N6K]: 4.09
PSACRNLFTPVDH [G9T]: 1.56
PSALRNLFGPVDH [C4L]: 2.36
PSACNNLFGPVDH [R5N]: 0.311
PSACRVLFGPVDH [N6V]: 3.12
PSACQNLFGPVDH [R5Q]: 0.391
PSACRNLFGPVDR [H13R]: 4.28
PSACRNQFGPVDH [L7Q]: 0.43

Series 3
Target: RNA binding protein fox-1 homolog 2, RRM domain, GST-SBP tag (RBFOX2, Homo sapiens, UniProt O43251-10, residues 100-194)
Technique: RNA Bind-n-Seq
Form: RNA
Sample: in vitro
Tested at: 365 nM
Notes: natural RNA segment, single round, ends assumed
Relative to: no-protein control
Reading: higher = stronger binding
Quantity: RBNS enrichment (R)
Construct (chain): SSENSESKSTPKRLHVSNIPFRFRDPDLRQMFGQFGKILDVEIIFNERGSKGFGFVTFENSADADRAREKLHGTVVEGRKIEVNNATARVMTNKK
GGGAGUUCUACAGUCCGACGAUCGAGAACUUCACAGAGACUCUGUCCUUCCAUGCAAAGGCUUCCUGAAAUAGGGAGACUGACUGAGUAGCUCAUUCUUGUGACUUACAGUGCCAACAUUUAAAAAAGUAUGAUGGAAUUCUCGGGUGCCAA: 0.341
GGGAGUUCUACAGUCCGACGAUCAUCCUCAAGGCCCUGCCCCAGUGAGACCCUGGGGCCCCUUGGCGGGCAGCCCAGCCUCUGUCCCUCUUUGCCUGUGUGAGCAUCUCUGUGUACCCACUCCUCACUGCCCCUGGAAUUCUCGGGUGCCAA: 0.668
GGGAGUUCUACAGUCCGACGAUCCUUCCUGGUUCUGAUCAAAACCAGACCAAACCCUCAUUUCAGCAAAGCCUUGCAAGACACUCCCUUGCUCAUUUGCCAUAUUUAGAUGUCUUAGUGGAGUCAGAGCCCUGUGGAAUUCUCGGGUGCCAA: 0.291
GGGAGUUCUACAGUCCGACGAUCUCAGAUAAAAAUCAGGUUGUAAGUUAUAUUGAAGACAAUUUGAUACAUAAUAAAAGAUUAUAACAGUUCUCGGGCUGAUUGCUGGUAUUGCUUUCUAAAUUAGUUUUUAGUGGAAUUCUCGGGUGCCAA: 0.526
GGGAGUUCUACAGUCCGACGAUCACCUAAUGGAGGCUGAGAUCUUGGAUGCAGACUCGGACUUUGAGCCUGCAGGGCAGGUCCUAGGAUGGGAAAGACAAAUGUACACCUUUCUAUGGCUCUUCCUGAGAGCAUGGAAUUCUCGGGUGCCAA: 9.19
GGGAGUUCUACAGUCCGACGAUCCAGGACAUGGCAUGCUUUGUGGAUCCCCAUGAUAGUCUACAAAAGCACCCCGCCCCUCUGGGCACUGCCUGGAAGAAUCGGGAGCCUGGCCAGCCUUCAGCUCGCUCCUCUGGAAUUCUCGGGUGCCAA: 4.21
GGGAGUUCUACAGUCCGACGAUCAAAUGCGUGCACUUUCAGGUCAGUACUGGGGACCAAGUACCCUCUGGUCUUUUGUGAAUGGAUGGUUUUGUUUCCUAUGGGAAUUUUGGCAAAGGUUUUCUGGAAAGAACUGGAAUUCUCGGGUGCCAA: 0.88
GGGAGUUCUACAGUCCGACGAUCUAAUGUAAAUUUGAAGUCAUUGUUAUAAAGUAAUAAAAGUGGAAAUUACUUAAGUAUUUAAAUUAUGAAAGAAUAAUGCAGACUUUUUAUUAUUUCUUAACUGACUAGAAUGGAAUUCUCGGGUGCCAA: 0.506
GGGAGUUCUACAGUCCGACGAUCGAAUGGUUUUAUCUCCAAGGUGAUACCAAAAACGAGUCAUGGACGACAGGCCUGGCCUCACACGCCAGAUCCAAAAUGUUGACCUGGACAAUCUGUCCCUGGUGCCCAUGUGGAAUUCUCGGGUGCCAA: 0.184
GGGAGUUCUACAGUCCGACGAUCUUCCAUAUUUAUGUCUACGAUUUGGUGAAAACAUCCUAAUGUCAUCACAAACUCUGCCAAAUUUGUGGAACUAUGAAAUGUAUUAUUUGUAGACAUAAAGACUUGAUUGCUGGAAUUCUCGGGUGCCAA: 0.81
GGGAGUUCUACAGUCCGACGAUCCUUAAAACUGCCGAGCCCCACUCCAUGUAAUAGGAUUCCUGGGCUUCCUCAAUGGGGGUUCAUGUUCUUGGACUGCGGGCCCUCAGUCCUUAACUGGAAAGUGACCGUCCUGGAAUUCUCGGGUGCCAA: 0.239
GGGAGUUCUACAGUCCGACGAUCGAACUGGGUCAGCAGCCCUGUUCUUGCUUCCUCUCUCUUAAGCUAGGCCAGGCUGGCUCCUGGCUGUGAAGGAACUUCCGGUCCCCAAGAAGCCUUGAAGACUGGACAAGUGGAAUUCUCGGGUGCCAA: 0.236

Series 4
Target: Prothrombin, mature alpha-thrombin (F2, Homo sapiens, UniProt P00734)
Technique: aptamer microarray, sandwich
Form: DNA with 2'F-ANA
Sample: in vitro
Tested at: 200 nM
Notes: whole 15-mer aptamer, many near background
Added: Cy3 exosite-II aptamer, 400 nM
Reading: higher = stronger binding
Quantity: mean fluorescence intensity
Oligonucleotide: GGTTGGTGTGGTTGG
2'F-ANA at 1 2 3 4 6 7 8 9 11 12 14: 63.4 a.u.
2'F-ANA at 1 2 5 10 11: 45.8 a.u.
2'F-ANA at 1 2 6 7 8 9 11 14 15: 63.8 a.u.
2'F-ANA at 1 4 5 6 9 12 14: 105 a.u.
2'F-ANA at 1 4 7 8 9 11 12: 232 a.u.
2'F-ANA at 1 3 4 7 8 9 10 15: 66.2 a.u.
2'F-ANA at 1 2 3 4 7 8 9 11 14: 66.1 a.u.
2'F-ANA at 1 6 11 12 13 14: 63.6 a.u.
2'F-ANA at 1 2 3 5 6 10 14: 66.5 a.u.
2'F-ANA at 1 3 4 5 7 8 9 12 14 15: 51 a.u.
2'F-ANA at 2 5 7 9 10 11 14: 42.2 a.u.
2'F-ANA at 3 6 7 9 14 15: 500 a.u.
2'F-ANA at 3 4 6 7 8 13: 580 a.u.
2'F-ANA at 3 4 7 8 9 10 13: 308 a.u.
2'F-ANA at 10 11 15: 157 a.u.
2'F-ANA at 2 3 7 13 15: 820 a.u.
2'F-ANA at 3 4 5 6 7 8 11 13 14: 54.9 a.u.
2'F-ANA at 1 3 9 10 12 13 14 15: 65.1 a.u.
2'F-ANA at 1 3 4 5 9 11 12 14: 48.8 a.u.
2'F-ANA at 12 13: 747 a.u.
2'F-ANA at 2 4 5 9 10 13 14: 51.6 a.u.
2'F-ANA at 1 4 6 10 12 13 14 15: 51.5 a.u.
2'F-ANA at 1 7 8 13 15: 182 a.u.
2'F-ANA at 1 2 3 5 6 8 15: 63.6 a.u.
2'F-ANA at 1 4 5 6 8 9: 64.2 a.u.
